Measured values pooled from the literature.
A part holds a random share of what one study measured. Values joined by “and” are separate records of one study, mostly repeats; a detail may differ.
UniProt O75676, sequence (whole entry, looked up): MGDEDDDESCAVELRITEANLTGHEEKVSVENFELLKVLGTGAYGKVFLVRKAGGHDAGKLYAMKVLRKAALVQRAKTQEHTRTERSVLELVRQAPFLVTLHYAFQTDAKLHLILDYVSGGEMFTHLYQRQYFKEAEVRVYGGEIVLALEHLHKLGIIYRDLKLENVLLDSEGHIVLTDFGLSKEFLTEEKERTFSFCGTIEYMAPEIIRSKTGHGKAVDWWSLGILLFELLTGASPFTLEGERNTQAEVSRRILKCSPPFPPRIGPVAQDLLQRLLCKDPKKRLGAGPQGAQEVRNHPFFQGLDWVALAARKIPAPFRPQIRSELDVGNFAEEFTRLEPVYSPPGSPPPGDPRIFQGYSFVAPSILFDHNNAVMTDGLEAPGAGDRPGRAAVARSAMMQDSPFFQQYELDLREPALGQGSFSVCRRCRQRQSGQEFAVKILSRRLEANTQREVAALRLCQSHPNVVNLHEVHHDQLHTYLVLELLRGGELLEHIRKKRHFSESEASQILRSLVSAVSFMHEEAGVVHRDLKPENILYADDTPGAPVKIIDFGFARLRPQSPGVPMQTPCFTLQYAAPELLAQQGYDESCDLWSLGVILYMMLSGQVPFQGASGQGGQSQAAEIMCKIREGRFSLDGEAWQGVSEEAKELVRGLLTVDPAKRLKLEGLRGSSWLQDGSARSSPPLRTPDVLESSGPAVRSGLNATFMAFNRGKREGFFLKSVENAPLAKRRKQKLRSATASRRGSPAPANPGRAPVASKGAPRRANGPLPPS
UniProt Q9NRP7, sequence (whole entry, looked up): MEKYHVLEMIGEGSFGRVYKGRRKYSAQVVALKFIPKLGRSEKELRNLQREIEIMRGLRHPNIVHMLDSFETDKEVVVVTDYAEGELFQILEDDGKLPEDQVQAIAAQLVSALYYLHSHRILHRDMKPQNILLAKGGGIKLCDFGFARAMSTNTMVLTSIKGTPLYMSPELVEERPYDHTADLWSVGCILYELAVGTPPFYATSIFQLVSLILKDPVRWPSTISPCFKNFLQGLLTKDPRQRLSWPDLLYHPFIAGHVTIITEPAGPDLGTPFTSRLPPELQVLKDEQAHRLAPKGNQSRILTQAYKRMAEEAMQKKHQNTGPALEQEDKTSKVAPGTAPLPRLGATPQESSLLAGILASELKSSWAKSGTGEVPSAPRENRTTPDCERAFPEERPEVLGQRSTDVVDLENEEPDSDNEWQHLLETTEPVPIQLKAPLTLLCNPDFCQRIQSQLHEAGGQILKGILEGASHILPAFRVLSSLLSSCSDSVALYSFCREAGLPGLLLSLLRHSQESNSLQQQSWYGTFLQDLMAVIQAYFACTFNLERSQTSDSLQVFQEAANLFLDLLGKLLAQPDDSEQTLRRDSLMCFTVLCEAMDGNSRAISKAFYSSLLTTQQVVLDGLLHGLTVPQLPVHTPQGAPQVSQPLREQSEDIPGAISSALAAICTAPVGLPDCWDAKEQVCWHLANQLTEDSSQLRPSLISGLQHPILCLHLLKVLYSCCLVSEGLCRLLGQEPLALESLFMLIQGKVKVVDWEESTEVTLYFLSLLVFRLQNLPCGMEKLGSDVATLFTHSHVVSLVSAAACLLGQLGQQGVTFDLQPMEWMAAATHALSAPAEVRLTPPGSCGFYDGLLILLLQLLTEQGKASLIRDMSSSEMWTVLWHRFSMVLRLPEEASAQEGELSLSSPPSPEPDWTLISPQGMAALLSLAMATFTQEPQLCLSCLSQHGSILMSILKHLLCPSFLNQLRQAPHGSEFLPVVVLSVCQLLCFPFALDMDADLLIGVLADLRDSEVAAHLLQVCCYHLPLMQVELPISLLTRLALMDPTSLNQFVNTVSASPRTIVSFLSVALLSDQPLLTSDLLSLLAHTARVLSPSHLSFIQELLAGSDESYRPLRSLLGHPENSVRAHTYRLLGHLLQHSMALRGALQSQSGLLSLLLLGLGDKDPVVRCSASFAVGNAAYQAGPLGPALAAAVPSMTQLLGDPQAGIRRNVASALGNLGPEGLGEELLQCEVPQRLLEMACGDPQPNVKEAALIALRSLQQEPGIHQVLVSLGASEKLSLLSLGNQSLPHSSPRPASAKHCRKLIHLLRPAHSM
UniProt Q9UK32, sequence (whole entry, looked up): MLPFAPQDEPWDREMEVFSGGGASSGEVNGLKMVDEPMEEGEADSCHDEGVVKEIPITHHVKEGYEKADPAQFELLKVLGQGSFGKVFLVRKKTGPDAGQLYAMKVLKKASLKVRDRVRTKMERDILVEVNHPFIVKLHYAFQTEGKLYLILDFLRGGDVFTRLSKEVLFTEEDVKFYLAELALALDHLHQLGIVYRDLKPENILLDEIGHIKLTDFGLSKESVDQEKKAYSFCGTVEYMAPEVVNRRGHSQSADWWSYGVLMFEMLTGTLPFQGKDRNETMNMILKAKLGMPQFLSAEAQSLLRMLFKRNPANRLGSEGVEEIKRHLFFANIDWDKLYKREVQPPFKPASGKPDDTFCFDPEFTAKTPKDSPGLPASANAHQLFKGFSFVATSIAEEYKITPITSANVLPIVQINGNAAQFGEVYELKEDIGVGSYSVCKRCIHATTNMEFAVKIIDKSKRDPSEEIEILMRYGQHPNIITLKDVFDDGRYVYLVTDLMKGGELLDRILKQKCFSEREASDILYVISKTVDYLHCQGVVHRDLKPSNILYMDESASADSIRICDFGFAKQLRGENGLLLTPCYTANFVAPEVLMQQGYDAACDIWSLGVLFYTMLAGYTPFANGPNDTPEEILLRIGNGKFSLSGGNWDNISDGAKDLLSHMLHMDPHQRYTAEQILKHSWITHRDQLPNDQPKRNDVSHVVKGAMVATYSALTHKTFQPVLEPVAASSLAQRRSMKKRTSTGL
UniProt P53671, sequence (whole entry, looked up): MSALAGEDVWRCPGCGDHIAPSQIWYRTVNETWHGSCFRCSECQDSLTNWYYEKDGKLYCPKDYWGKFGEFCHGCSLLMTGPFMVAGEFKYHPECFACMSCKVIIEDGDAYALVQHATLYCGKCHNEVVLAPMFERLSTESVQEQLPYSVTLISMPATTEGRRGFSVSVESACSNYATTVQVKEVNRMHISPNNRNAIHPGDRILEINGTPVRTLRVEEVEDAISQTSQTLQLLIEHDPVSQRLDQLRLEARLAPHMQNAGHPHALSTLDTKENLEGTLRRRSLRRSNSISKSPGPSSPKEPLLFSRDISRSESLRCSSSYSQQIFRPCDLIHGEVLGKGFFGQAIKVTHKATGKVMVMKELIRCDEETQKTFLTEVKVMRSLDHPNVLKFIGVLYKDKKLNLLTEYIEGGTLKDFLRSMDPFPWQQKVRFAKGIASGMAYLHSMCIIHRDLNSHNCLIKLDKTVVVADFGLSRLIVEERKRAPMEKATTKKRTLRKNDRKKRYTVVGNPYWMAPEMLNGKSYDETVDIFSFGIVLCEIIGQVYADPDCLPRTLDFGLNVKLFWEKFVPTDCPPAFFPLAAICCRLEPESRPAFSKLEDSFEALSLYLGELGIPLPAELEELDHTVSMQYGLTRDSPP
UniProt Q8N752, sequence (whole entry, looked up): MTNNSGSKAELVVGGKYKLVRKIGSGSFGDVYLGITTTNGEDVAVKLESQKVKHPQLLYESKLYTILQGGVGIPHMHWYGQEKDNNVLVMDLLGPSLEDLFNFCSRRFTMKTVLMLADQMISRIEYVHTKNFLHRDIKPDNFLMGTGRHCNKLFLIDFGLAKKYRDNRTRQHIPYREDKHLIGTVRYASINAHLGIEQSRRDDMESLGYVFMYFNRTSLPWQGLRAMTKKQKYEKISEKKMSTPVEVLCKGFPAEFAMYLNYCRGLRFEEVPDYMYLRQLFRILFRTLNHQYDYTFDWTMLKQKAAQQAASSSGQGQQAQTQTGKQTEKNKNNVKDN
UniProt Q9H2K8, sequence (whole entry, looked up): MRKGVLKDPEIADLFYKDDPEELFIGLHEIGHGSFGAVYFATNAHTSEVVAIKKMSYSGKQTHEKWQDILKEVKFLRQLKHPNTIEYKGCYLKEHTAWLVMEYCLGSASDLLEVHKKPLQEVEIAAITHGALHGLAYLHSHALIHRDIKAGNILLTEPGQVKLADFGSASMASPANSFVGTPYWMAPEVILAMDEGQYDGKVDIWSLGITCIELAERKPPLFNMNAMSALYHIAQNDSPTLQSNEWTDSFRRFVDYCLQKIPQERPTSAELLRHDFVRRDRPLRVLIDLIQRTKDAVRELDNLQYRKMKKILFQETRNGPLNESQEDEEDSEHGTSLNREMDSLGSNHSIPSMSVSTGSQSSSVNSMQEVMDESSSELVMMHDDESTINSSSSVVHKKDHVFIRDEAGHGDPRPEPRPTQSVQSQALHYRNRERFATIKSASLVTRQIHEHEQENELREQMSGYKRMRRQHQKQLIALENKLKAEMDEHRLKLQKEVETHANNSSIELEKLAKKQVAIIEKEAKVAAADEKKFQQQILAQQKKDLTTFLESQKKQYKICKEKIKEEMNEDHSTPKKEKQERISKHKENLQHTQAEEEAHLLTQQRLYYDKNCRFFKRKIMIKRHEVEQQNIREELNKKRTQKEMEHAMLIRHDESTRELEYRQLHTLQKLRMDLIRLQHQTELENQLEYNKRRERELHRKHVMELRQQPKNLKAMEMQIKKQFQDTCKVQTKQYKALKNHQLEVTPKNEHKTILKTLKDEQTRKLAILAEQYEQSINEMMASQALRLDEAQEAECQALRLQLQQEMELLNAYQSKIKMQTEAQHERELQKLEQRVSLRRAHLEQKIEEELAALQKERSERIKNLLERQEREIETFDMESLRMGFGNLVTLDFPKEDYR

Block 1 — effect on: enzyme activity; mode: inhibitor; concentration: 0.5 µM; reference: control; measurement: remaining activity
Target: Testis-specific serine/threonine-protein kinase 1 (TSSK1B, Homo sapiens, UniProt Q9BXA7)
Residues (Q9BXA7 1-367): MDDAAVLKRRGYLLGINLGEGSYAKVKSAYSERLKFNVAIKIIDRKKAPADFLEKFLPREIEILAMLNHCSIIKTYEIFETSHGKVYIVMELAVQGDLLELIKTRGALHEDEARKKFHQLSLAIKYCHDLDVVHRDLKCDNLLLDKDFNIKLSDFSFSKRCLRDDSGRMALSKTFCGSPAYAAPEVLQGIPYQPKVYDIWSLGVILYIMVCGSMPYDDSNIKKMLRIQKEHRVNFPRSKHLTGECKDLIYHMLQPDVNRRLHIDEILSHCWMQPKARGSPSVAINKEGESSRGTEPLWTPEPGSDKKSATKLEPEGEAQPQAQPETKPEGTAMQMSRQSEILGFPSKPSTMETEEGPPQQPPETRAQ
COc1cc2ncc(-c3ccccc3)nc2cc1OC: 94.5%
COc1ccc(Cl)cc1NC(=O)Nc1cc(C)nc2ccccc12: 94.6%
CCOc1cc2ncnc(Nc3cccc(Br)c3)c2cc1OCC: 92.9%
COc1cc2ncnc(Nc3ccc(OCc4ccccc4)cc3)c2cc1OC: 106%
CC(C)c1nn(-c2c(Cl)cccc2Cl)c2nc(Cc3ccc(OCCO)cc3)[nH]c(=O)c12: 104%
CC(C)[C@H](CO)Nc1nc(Nc2cccc(Cl)c2)c2ncn(C(C)C)c2n1: 102%
Nc1[nH]nc2nnc(-c3c(-c4ccccc4)nn4ccccc34)cc12: 102%
Cc1nc(Nc2ncc(C(=O)Nc3c(C)cccc3Cl)s2)cc(N2CCN(CCO)CC2)n1: 93.8%
CCN1/C(=C/C(C)=O)Sc2ccc(OC)cc21: 110%
C[S+]([O-])c1ccc(-c2nc(-c3ccncc3)c(-c3ccc(F)cc3)[nH]2)cc1 (stereo not drawn): 108%
CS(=O)(=O)CCNCc1ccc(-c2ccc3ncnc(Nc4ccc(OCc5cccc(F)c5)c(Cl)c4)c3c2)o1: 79%
Cn1cnc2cc3c(Nc4cccc(Br)c4)ncnc3cc21: 104%
O=C1NC(=O)/C(=C/c2ccc3nccnc3c2)S1: 78.6%
CN(C)CCCn1cc(C2=C(c3c[nH]c4ccccc34)C(=O)NC2=O)c2ccccc21: 89.8%
Cn1cc(/C=C2\C(=O)Nc3ccc(S(N)(=O)=O)cc32)c2ccccc21: 17%
O=c1cc(N2CCOCC2)oc2c1ccc1ccccc12: 101%
COc1ccc(-c2cnc3c(-c4ccsc4)cnn3c2)cc1: 99.1%
CCC(=O)Nc1ccc2ncnc(Nc3cccc(Br)c3)c2c1: 73.2%
O=C(Nc1ccc(Cl)cc1)c1ccccc1NCc1ccncc1: 103%
CC(=O)O/N=C1/C(c2c(O)[nH]c3cc(Br)ccc23)=Nc2ccccc21: 92.4%
COc1cc2ncnc(N3CCN(C(=O)Nc4ccc(Oc5ccccc5)cc4)CC3)c2cc1OC: 65.2%
Cc1ccc(NC(=O)c2ccc(CN3CCN(C)CC3)cc2)cc1Nc1nccc(-c2cccnc2)n1: 97%

Block 2 — organism: Plasmodium berghei; mode: inhibitor; cells: Huh-7; strain: GFP-expressing, liver stage; concentration: 10 µM; time: 24 h; reference: untreated control; measurement: infection rate
O=C1C(CC[S+]([O-])c2ccccc2)C(=O)N(c2ccccc2)N1c1ccccc1 (stereo not drawn): 117%
CC1(C)S[C@@H]2[C@H](NC(=O)COc3ccccc3)C(=O)N2[C@H]1C(=O)O: 111%
C#C[C@]1(OC(C)=O)CC[C@H]2[C@@H]3CCC4=CC(=O)CC[C@@H]4[C@H]3CC[C@@]21C: 79.8%
CCCNC(C)C(=O)Nc1ccccc1C (stereo not drawn): 103%
Nc1ccc(S(=O)(=O)NC(=O)c2ccccc2)cc1: 95.2%
CNS(=O)(=O)Cc1ccc2[nH]cc(CCN(C)C)c2c1: 55.8%
CNC[C@H](O)c1cccc(O)c1: 94.8%
Cc1nnc(NS(=O)(=O)c2ccc(N)cc2)s1: 93.7%
CN1C(C(=O)Nc2ccccn2)=C(O)c2sccc2S1(=O)=O: 112%
N[C@@H](Cc1c[nH]c2ccccc12)C(=O)O: 93.3%
c1ccc(C2CN3CCSC3=N2)cc1 (stereo not drawn): 83.3%

Block 3 — cell line: A-375; concentration: 100 µM; time: 36 h; measurement: viability
CC(C)C[C@H](NC(=O)[C@H](Cc1ccccc1)NC(=O)c1cnccn1)B(O)O: 5.36%
CN1CCN(CCCN2c3ccccc3Sc3ccc(C(F)(F)F)cc32)CC1: -0.978%
CCOC(=O)[C@H](CCc1ccccc1)N[C@@H](C)C(=O)N1Cc2ccccc2C[C@H]1C(=O)O: 106%
CC1CCc2cc(F)cc3c(=O)c(C(=O)O)cn1c23 (stereo not drawn): 87.1%
CCC[C@@H]1C[C@@H](C(=O)N[C@@H]([C@H]2O[C@H](SC)[C@H](O)[C@@H](O)[C@H]2O)[C@@H](C)O)N(C)C1: 100% and 97.6%
Cc1cn([C@@H]2C[C@@H](O)[C@H](CO)O2)c(=O)[nH]c1=O: 110%
CCC(Cc1c(I)cc(I)c(N)c1I)C(=O)O (stereo not drawn): 91.9%
Nc1ccc(S(=O)(=O)Nc2nccs2)cc1: 102%
C/C=C1\NC(=O)[C@H]2CSSCC/C=C/[C@H](CC(=O)N[C@H](C(C)C)C(=O)N2)OC(=O)[C@H](C(C)C)NC1=O: 3.21%
O=C(O)COC(=O)Cc1ccccc1Nc1c(Cl)cccc1Cl: 79.6%
C[C@]12C=CC(=O)C=C1CC[C@@H]1[C@@H]2[C@@H](O)C[C@@]2(C)[C@H]1CC[C@]2(O)C(=O)COP(=O)(O)O: 104%
O=C1NCC2(CCN(CCc3ccccc3)CC2)O1: 127%
COCCCC/C(=N\OCCN)c1ccc(C(F)(F)F)cc1: -1.08%
COC(=O)Nc1nc2cc(C(=O)c3ccc(F)cc3)ccc2[nH]1: -1.8%
COc1cc(C)c(/C=C/C(C)=C/C=C/C(C)=C/C(=O)O)c(C)c1C: 79.3%
CCCCc1nc(Cl)c(CO)n1Cc1ccc(-c2ccccc2-c2nn[nH]n2)cc1: 107% and 126%
O=C1CC[C@@H](C(=O)N2CSC[C@H]2C(=O)O)N1: 89.1%
Cc1cnc(C(=O)N[C@H]2CCCCC/C=C\[C@@H]3C[C@@]3(C(=O)NS(=O)(=O)C3CC3)NC(=O)[C@@H]3C[C@@H](Oc4nc5ccccc5c5ccccc45)CN3C2=O)cn1: 7.04%

Block 4 — effect on: cell-free assay; method: competition with immobilised ligand; concentration: 1 µM; measurement: remaining binding
SMILES: CN([C@@H]1CCc2c(CC(=O)O)c3cc(S(C)(=O)=O)ccc3n2C1)S(=O)(=O)c1ccc(F)cc1
Receptor-type tyrosine-protein kinase FLT3 (FLT3, Homo sapiens, UniProt P36888, D835H): 76%
MAP/microtubule affinity-regulating kinase 4 (MARK4, Homo sapiens, UniProt Q96L34): 100%
LIM domain kinase 2 (LIMK2, Homo sapiens, UniProt P53671): 100%
Casein kinase I isoform alpha-like (CSNK1A1L, Homo sapiens, UniProt Q8N752): 94%
Myosin light chain kinase family member 4 (MYLK4, Homo sapiens, UniProt Q86YV6): 100%
Serine/threonine-protein kinase Nek3 (NEK3, Homo sapiens, UniProt P51956): 59%
MAP kinase-interacting serine/threonine-protein kinase 2 (MKNK2, Homo sapiens, UniProt Q9HBH9): 100%
Ephrin type-A receptor 7 (EPHA7, Homo sapiens, UniProt Q15375): 100%
BMP-2-inducible protein kinase (BMP2K, Homo sapiens, UniProt Q9NSY1): 98%
Mitogen-activated protein kinase kinase kinase kinase 2 (MAP4K2, Homo sapiens, UniProt Q12851): 90%
Ribosomal protein S6 kinase alpha-6, C-terminal kinase domain (RPS6KA6, Homo sapiens, UniProt Q9UK32): 100%
Ribosomal protein S6 kinase alpha-4, N-terminal kinase domain (RPS6KA4, Homo sapiens, UniProt O75676): 100%
Serine/threonine-protein kinase 36 (STK36, Homo sapiens, UniProt Q9NRP7): 98%
Glycogen synthase kinase-3 beta (GSK3B, Homo sapiens, UniProt P49841): 85%
Cyclin-dependent kinase 11A (CDK11A, Homo sapiens, UniProt Q9UQ88): 100%
Non-receptor tyrosine-protein kinase TYK2, JH1 (TYK2, Homo sapiens, UniProt P29597): 100%
Mitogen-activated protein kinase kinase kinase 4 (MAP3K4, Homo sapiens, UniProt Q9Y6R4): 79%
Serine/threonine-protein kinase TAO3 (TAOK3, Homo sapiens, UniProt Q9H2K8): 73%

Repeated from above (block 4):
Ribosomal protein S6 kinase alpha-6, C-terminal kinase domain (RPS6KA6, Homo sapiens, UniProt Q9UK32): 100%
Ribosomal protein S6 kinase alpha-4, N-terminal kinase domain (RPS6KA4, Homo sapiens, UniProt O75676): 100%
Serine/threonine-protein kinase 36 (STK36, Homo sapiens, UniProt Q9NRP7): 98%
Glycogen synthase kinase-3 beta (GSK3B, Homo sapiens, UniProt P49841): 85%
Cyclin-dependent kinase 11A (CDK11A, Homo sapiens, UniProt Q9UQ88): 100%
